Measured values from different studies.
Numbered parts are unrelated; each lists some results of a single study. Positions count from the first letter of the parent shown.

Series 1 — method: protein-binding microarray; form: double-stranded DNA, one strand shown; matrix: in vitro; concentration: 250 nM; notes: 60-bp whole probe; added: salmon DNA 0.4 mg/ml; reference: random background probes; direction: higher = stronger binding; measurement: log fluorescence; all sequences stand within: GCCTAGCAC … GTCTTGATTCGCTTGACGCTGCTG
Target: Interferon regulatory factor 7, full length, phosphomimetic (IRF7, Homo sapiens, UniProt Q92985, residues 1-503, S101K/S471D/S472D/S475D/S476D/S477D/S483D/S484D/S487D)
Sequence of UniProt Q92985 (whole entry, unmodified, looked up): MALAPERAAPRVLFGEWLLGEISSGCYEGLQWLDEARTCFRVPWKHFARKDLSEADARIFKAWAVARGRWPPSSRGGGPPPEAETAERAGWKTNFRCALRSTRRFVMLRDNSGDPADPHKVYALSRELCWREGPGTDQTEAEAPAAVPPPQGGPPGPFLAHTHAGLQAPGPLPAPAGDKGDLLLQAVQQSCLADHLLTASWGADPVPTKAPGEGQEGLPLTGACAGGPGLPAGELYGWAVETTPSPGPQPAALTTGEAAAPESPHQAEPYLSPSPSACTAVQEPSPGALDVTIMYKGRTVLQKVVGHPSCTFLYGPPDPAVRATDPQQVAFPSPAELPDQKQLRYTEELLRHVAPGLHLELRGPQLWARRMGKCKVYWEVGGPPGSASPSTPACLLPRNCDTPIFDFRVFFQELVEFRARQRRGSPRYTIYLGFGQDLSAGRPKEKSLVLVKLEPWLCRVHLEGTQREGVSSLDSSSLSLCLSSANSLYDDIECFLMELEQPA
TTAGGTTTCAGTATCGGTTAGTGCTAG: 3.3 z-score
GACGGTTTCGACTATAGGGACGTGCTA: 4.83 z-score
TTAGATATCAGATTCGATTAGTGCTAG: 2.91 z-score
TTAGATCTCAGTTTCGATGAGTGCTAG: 2.46 z-score
ATTAGAGGATAACTTACAGAGTGCTAG: -0.136 z-score
GACGGTCTCGGACTGGGGGCGTGCTAG: 0.729 z-score
GACGGTATAGACTATCGGGACGTGCTA: -0.699 z-score
TTAGAACTGAGTCTCGGTTAGTGCTAG: 1.35 z-score
GACGGACTGGGGCTTCGGGACGTGCTA: -0.651 z-score
TTAGGTATGCTTTTCCTTTAGTGCTAG: 0.727 z-score
TCACCCCTCTAGGTTCTCACTGTGCTA: -0.248 z-score
GACGGACTGCTTATCCTGACGTGCTAG: -0.615 z-score
TTAGAGCTCAGTCTCGATTAGTGCTAG: 0.704 z-score
AACGGTTTCGGTATCGGGACGTGCTAG: 10.6 z-score
TTAGGTTTCGGTCTCGTTTAGTGCTAG: 9.08 z-score

Series 2 — method: universal PBM; form: double-stranded DNA, one strand shown; matrix: in vitro; concentration: not given; direction: higher = stronger binding; measurement: E-score
Target: Sal-like protein 4, full length isoform B (SALL4, Homo sapiens, UniProt Q9UJQ4-2, residues 1-616)
Notes: 8-mer, flanks averaged, mean of replicates
Target sequence (chain): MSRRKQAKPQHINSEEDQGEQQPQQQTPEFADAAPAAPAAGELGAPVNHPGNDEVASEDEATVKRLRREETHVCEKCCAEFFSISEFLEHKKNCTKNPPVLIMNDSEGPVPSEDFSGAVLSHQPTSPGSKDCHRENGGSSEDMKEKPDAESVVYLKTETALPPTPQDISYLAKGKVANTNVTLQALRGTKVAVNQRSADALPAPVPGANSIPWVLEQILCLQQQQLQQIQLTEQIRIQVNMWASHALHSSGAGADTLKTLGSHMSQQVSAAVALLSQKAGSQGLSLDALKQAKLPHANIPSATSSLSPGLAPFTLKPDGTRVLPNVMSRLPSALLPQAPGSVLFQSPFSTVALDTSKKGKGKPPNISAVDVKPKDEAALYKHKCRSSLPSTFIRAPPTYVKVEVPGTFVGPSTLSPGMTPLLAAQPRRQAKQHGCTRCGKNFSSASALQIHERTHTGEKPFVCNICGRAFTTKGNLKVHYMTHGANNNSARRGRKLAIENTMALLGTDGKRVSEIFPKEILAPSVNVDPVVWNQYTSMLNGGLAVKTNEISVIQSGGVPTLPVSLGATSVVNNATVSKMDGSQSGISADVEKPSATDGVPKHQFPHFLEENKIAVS
CAATACAA: 0.213
CTGACTAC: -0.0263
AGCGACGC: -0.224
GAACTGGC: -0.272
ATTCCCGC: 0.0108
GGATACAC: -0.0562
GCGAGTCA: -0.195
CAGGGATC: -0.228
AAGACCCC: -0.155
TGCTACCA: -0.1
GTTGTTTA: 0.25
CCTCGACA: -0.0276
AGGCCCAA: -0.142
CCTCGTAA: -0.0312
AAAACCCT: 0.125
GGGTCACA: -0.222
AGGCCCAC: -0.342
CCGAGGGA: -0.319
GACAAATA: 0.243
ATGGCACC: -0.13
ACCGCTCC: -0.279
AATTGCTG: 0.123
CGGGGCGC: -0.419
GGTTTAAC: 0.0169
GCAGTTAC: 0.0734

Series 3 — method: RNA Bind-n-Seq; form: RNA; matrix: in vitro; concentration: not given; reference: input RNA pool; direction: higher = stronger binding; measurement: bound/input enrichment
Target: RING finger protein unkempt homolog, zinc fingers 1-6, GST-SBP tag (UNK, Homo sapiens, UniProt Q9C0B0, residues 30-357)
Sequence of UniProt Q9C0B0 (30-357, looked up): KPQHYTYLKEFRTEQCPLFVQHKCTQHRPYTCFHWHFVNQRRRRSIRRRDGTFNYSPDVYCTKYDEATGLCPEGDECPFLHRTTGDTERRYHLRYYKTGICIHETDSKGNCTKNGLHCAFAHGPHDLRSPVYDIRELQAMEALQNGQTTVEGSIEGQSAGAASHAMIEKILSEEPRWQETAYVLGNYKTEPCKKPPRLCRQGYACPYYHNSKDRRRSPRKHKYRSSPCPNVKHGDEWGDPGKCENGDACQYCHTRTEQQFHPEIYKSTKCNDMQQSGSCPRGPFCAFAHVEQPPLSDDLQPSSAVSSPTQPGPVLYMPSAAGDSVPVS
Notes: RNA with constant flanks, human and mouse sites, ends assumed
All sequences stand within: GGGAGUUCUACAGUCCGACGAUC … CAACAGAGGAUUGAGCAUCA
CAGUGUUUGAGCAACACACCUCCACUUACUGAAUAUUUCCUCAAUGAUAAGUACCAAGAAGAGCUGAAUUUUGACAAUCCCUUAGGAAUGAGAGGUGAAAUAGCUAAAUCAUACGCUGAA: 0.434 ratio
ACUUUUCCAUGCAGAGUUGUGCACAUGGGAGAGGGUAUCCGGUUUGUCCAGUGAUUGUUCUUUAGAGAGUUGGACCACUAUAUUGUGUGUUUGCUAAUCAUUGACUGUAGUCCCAAAAAA: 0.194 ratio
GCUGCGCCGACGAGUCUCCCCAAGUCCUCCCGGAGCCUGUCUGGCUCACUCUGUGCCCUGUUUUCUGAUGCAGAAUCGAGAUCCGAGAUGAAGACUGAACUUUCUCCUCGGCCCGGGGCA: 0.164 ratio
CUUCAGAAACAUGUAGAGGAUUUGUUGACAAAAUUAAAAGAGGCCAAAGAACAGCAGGCCAGUAUGGAAGAGAAAUUCCACAAUGAGUUAAAUGCUCACAUAAAGCUCUCUAAUCUCUAC: 0.101 ratio
GAUCCAAUGUUGCUGCAGUUUUUCAAGUCUCAAGGUUAUAGGGAUGGCCCAGGUAAUCCUCUUAGACAUAAUUAUGAAGGUACUUUAAGAGAUCUUCUACAGUUCUUCAAGCCUAGACAA: 0.807 ratio
GGAAUUCUCUGCUCACUGCUGGGUACUGUUCUGCUGUGGGUGCCCAGGAAGGGACUACACCUCUUCGCAGUGUUUUAUACCUUUGGUAAUAUCGCAUCAAUUGGGAGUACCAUCUUCCUC: 0.151 ratio
AGGGAGAGUCAAGAACUGAGAUCUCUGGGCAAGUGGAACCCAGAGACUGUGGAAUCACCAGGAGGGGUGGAGGACAGUCAGCAGUGCCUGGAAGUGGAAGAGGGCCCGGAGAGGGAGCAG: 0.511 ratio
UGUAUUGUGUAAUGCAUUGUUCUCAGUUUCCCUGCCAACAUUGAAAAAUAAAAACAGCAGCUUUUCUCCUUUACCACCACCUCUACCCCUUUCCAUUUUGGAUUCUCGGCUGAGUUCUCA: 0.33 ratio
UUCGACUUUCUUUGCCAGUACCAUAAACCAGCAAGCAAGAUUCCUGCUUUCCUAAAUGUAGUGGAUAUUGCUGGCCUUGUAAAAGGAGCUCACAAUGGGCAGGGCUUGGGGAAUGCCUUU: 0.171 ratio
UUGUAUCGCUCUUACCAUAUGCCUGUUUGCAAAUCAUGAUCUUCACUGGGCUGGAAUUUUAUUAGAUUUUUGUUUUGUUUUUCCCUUUUUUCUCCUAGGCUGUCACUCUGUUGUUCUCCC: 68.1 ratio
GACCAGACUCCAAAAUGGAAACCAGCCAAUCUAAAAGAUGUUACGGAUGAAGACUUGAAUAGUUACUUUAAAUCUCUGGGAAGCAGUGAUUUGAAAUUCUAAAGUUUAUUUUGGAGCAAA: 0.237 ratio

Series 4 — target: CCNE2, cyclin fold, Cln2 fusion (human); method: yeast growth competition, sequencing; matrix: yeast; notes: strong parent motif; reference: not given; direction: higher = stronger binding; measurement: normalised enrichment score
Parent: CDKN1B docking peptide (human); PSACRNLFGPVDH
F8L: 0.121
L7S: 0.37
C4W: 0.945
L7V: 0.658
P10I: 0.861
P10L: 0.834
V11Q: 1.6
F8R: 0.636
P1F: 1.47
D12L: 1.39
G9D: 0.963
D12C: 1.57
S2D: 0.315
P10K: 1.44
H13Y: 1.01
V11L: 1.46
A3V: 3.96

Series 5 — method: RNA Bind-n-Seq; form: RNA; matrix: in vitro; concentration: 365 nM; reference: no-protein control; direction: higher = stronger binding; measurement: RBNS enrichment (R)
Target: RNA binding protein fox-1 homolog 2, RRM domain, GST-SBP tag (RBFOX2, Homo sapiens, UniProt O43251-10, residues 100-194)
Notes: natural RNA segment, single round, ends assumed
All sequences stand within: GGGAGUUCUACAGUCCGACGAUC … UGGAAUUCUCGGGUGCCAA
Target sequence (chain): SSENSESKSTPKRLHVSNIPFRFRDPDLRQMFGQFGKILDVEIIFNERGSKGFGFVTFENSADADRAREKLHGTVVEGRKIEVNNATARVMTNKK
GCGGAUCAUGAGGUCAGGAGAUCAAGACCACCCUGGCUAACACGGUGAAACCCCAUCUCUACUAAAAAUAAAAAAAAAAAUUAGCCGGGUUUGGUGGCGUAUGCCUGUAA: 0.475
GACUGAGUUCUUUGAGUUGCAUAUAAAUGGGGGUAUAUUAUUUGCCAAAGGUAAAAUUGAGUUUAUUCUUUUUCAUACAGAAAUGGAUUUUGCUUUUGUUUGCUUUUUAU: 1.5
GAUGAUUUGUGCAUUUUAAAAAAUGAGUUUCUUUCCCUCUUAGCACCCCUCCUUCCUGUCUGGUUAGGAAGCCCAAUGCACCCUCUGAGGUCAUCACUUCUGUUCUAUGU: 0.453
CACAUAUCAUGUGCUUAGUUUGUUUAUUUUUCUCCAUCUCCCCUUGGCUUCCUAGAGUUUGGACAUAUUCCAGGCUAAAUGCUUUUACUCAAGACUACAGAAAGGUUUGA: 0.347
AGUGGCUCUGACCCCCAACCUACUCUGGGCACCUUCCUACCCCCAUCUCUCCAGCAACAAUAACCUAAGAUGUCUAUAGACAUUAGACCAUGUCUCCAUAAGACAGGCCC: 0.665
UUCCUAGAGCCCCAGGGUCAACUGUCCUCUCUAGCAUGCAGCCUGUGACAGCUUGCUUCAGGACAAAGCAACAGUGAAGUGAGAAAAUGUCAACAGGAGAGAAAGGGCCC: 17.2
ACUCAGAACAAUUUAACUUGCUAAUUAUAUCACCUUCCAGAUUGGAGAAAGGAGACAGUAAGGUAUUUUGCCUGCCUUGUGAUGCCCUCCCCUGACCACCCUACCUUUUU: 0.863
AAGGAGGCCUCGUGGGAUCCUUUAGUGCCAAGCCUGGCGUCCCUGGCCUCAAUUCCGACCUGAGCCCCGGCCACUUUUAGGCCAUCCUCGGACUUGUCGCCCCUUCCCAG: 0.405
UGGAUUUGGGAAUCAAACUCAAGCCCAUCUAAUCCAAGGGUAGGAAAUGUCUCUAAAACGUUGAUCAAUCUGAAGCUUACAGAUUGGAAACUGGGCCAGGUCAGCCCUGG: 0.256
CUAUGCCAACAUCUCCCAUUGGAAACAGGGUUUCUCCUCCUUGCUUCAUCAGAGCCAACCUUUGAUAUUCUUGGAGGGGACAGGAGGUGGGAACACAGAGGGAGUAGCCU: 0.3
CUCCUUUGCUGCCCACUUGUAAGUUUAAAUAAGGACACCGCCCUACACAAACCUCACCCCUGUCACAUCAGUGACUCUGACCACUUUUGUUCUCAAACUCUCUCACUAUU: 0.661
UAGACUGGAGUUCAAGCAAGUAACAGCAGUGUGUGUCUUAGGAACUGAGAUUCCAGAUAGAGAGGCUUCGGUUCCUGCUACUUCCCUGUUUGUCUGGGGAGUAGAGGAAU: 1.21

Single results of other studies
PhoQ, residues 284 288 289 292 302 303 TAVSDG  fold induction (PhoP, residues 12 14 15 18 19 AQALL (Escherichia coli, UniProt P23836); Sort-seq, measured: YFP reporter; E. coli; PhoQ-PhoP variant library, added: 10 µM Mg2+; reference: high Mg2+ state, higher = stronger signaling): 1.9

A few entries again (series 4):
P10I: 0.861
P10L: 0.834
V11Q: 1.6
F8R: 0.636
P1F: 1.47
D12L: 1.39
